Measurements gathered from unrelated publications.
A part holds a random share of what one study measured.

Study 1 — method: protein binding microarray; form: double-stranded DNA, one strand shown; medium: in vitro; concentration: not given; reference: not given; reading: higher = stronger binding; measurement: E-score
Target: Histone acetyltransferase KAT6A, both winged helices, GST fusion (KAT6A, Homo sapiens, UniProt Q92794, residues 1-181)
Setting: 8-mer, flanks averaged, mean of 2 arrays, mostly near background
Target sequence (chain): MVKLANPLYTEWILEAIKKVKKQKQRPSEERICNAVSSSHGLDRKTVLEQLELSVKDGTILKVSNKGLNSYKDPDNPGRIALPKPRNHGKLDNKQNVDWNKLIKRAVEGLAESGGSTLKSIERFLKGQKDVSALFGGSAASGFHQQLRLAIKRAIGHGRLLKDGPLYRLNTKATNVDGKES
AGAGTTAT: -0.189
TCCTCGAA: -0.0817
TACGAGCA: -0.0505
GCTCGACA: -0.0214
ATCACTCG: 0.0292
ATAGCAGC: -0.0565
GCGCAGAC: 0.229
GGTCCCAA: -0.0539
GGCGCACA: 0.278
CGGTATTA: 0.123
CCGTGGTA: 0.0697
ACCGCTCG: 0.225
TGAAGGAA: -0.106
CTGGCCAC: -0.209
AACTACAG: -0.00151
ACCTGCCG: 0.07
ATCGGCTC: 0.136
GGCTTTTA: -0.0187
CCGGGGAA: 0.237
AAGAAGCA: -0.0552
CCAACACC: -0.105
GGACCACC: -0.0671

Study 2 — method: protein-binding microarray; form: double-stranded DNA, one strand shown; medium: in vitro; concentration: 2200 nM top; setting: 60-bp whole probe; added: salmon DNA 0.4 mg/ml; reference: random background probes; reading: higher = stronger binding; measurement: fitted relative affinity; constant ends, left off below: GCCTAGCAC … GTCTTGATTCGCTTGACGCTGCTG
Target: Interferon regulatory factor 7, full length, phosphomimetic (IRF7, Homo sapiens, UniProt Q92985, residues 1-503, S471D/S472D/S475D/S476D/S477D/S483D/S484D/S487D)
Target sequence (chain): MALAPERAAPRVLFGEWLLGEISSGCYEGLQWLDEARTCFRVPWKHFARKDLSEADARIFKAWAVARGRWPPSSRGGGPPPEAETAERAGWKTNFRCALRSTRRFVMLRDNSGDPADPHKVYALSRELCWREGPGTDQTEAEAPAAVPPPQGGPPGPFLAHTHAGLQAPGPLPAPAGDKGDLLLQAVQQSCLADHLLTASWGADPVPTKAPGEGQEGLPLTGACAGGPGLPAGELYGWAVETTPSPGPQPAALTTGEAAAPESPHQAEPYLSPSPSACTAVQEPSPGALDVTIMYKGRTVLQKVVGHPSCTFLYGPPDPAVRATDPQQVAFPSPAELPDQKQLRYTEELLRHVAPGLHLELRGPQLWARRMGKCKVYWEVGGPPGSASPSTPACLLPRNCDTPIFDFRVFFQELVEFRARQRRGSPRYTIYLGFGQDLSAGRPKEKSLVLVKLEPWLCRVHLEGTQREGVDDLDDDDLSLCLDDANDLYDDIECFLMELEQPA
TTAGACATCAGTTTCGATTAGTGCTAG: 5.42 z-score
TTAAGTTTCCTTTTCCTTTAGTGCTAG: 9.18 z-score
GACGGTATCCTTATCCTTACGTGCTAG: 1.17 z-score
GACGGTCTCCTTCTCCTCACGTGCTAG: 1.03 z-score
TGAAATTTTAATAACACAGAGTGCTAG: -1.14 z-score
GACGGTTTCTTACTGCTGACGTGCTAG: 1.66 z-score
GACGGACTGATTTTCCTGACGTGCTAG: 0.396 z-score
TTAGAGTTCAGTCTCGATTAGTGCTAG: -0.156 z-score
GACGGTTTCCTTTCGCTGACGTGCTAG: 5.88 z-score
GGGAGTGTCAATAATGACCACGTGCTA: -0.544 z-score
GACGAATTGGGGTATCGAGACGTGCTA: 0.408 z-score
TCAACTTTGCTCTGTGCGACTGTGCTA: 0.545 z-score
TTAGATTCCAGTTTGGATTAGTGCTAG: 0.831 z-score
GACGGTTTCCTACTGCTGCCGTGCTAG: 1.89 z-score
GACCGACTGGGGACTGGGGACGTGCTA: -0.509 z-score
CCTAGTTTTACTTTCTATCTGTGCTAG: 5.89 z-score
TCATTTTCCATTTTGTGACTGTGCTAG: 7.48 z-score
TTAGGTATCTACTTTCGGTTAGTGCTA: 9.39 z-score
TTAGGAGTGCTTCTCCTTTAGTGCTAG: 0.32 z-score
TGGGGGGATCAGGGAAACAGGTGCTAG: 1.85 z-score
TCACATTTCCCTTGCCGACTGTGCTAG: 2.82 z-score
GAAGGTTTCCTTCTCCTGACGTGCTAG: 2.12 z-score
GAAGGTATCCTACTGCTGACGTGCTAG: 0.105 z-score
TTTGGTCTCGGTTTCGGTTAGTGCTAG: 7.32 z-score
GAGGATATCAGTATCGAGACGTGCTAG: 0.0478 z-score

Study 3 — method: aptamer microarray, sandwich; form: DNA with 2'F-ANA; medium: in vitro; concentration: 200 nM; added: Cy3 exosite-II aptamer, 400 nM; reading: higher = stronger binding; measurement: mean fluorescence intensity; strand: GGTTGGTGTGGTTGG
Target: Prothrombin, mature alpha-thrombin (F2, Homo sapiens, UniProt P00734)
Setting: whole 15-mer aptamer, many near background
2'F-ANA at 2 3 4 11 14 15: 247 a.u.
2'F-ANA at 1 2 3 5 6 7 11 12 13 14 15: 70.2 a.u.
2'F-ANA at 1 4 11 13 14 15: 50.1 a.u.
2'F-ANA at 4 5 8 9 12 13 14 15: 44.8 a.u.
2'F-ANA at 1 5 6 12 13: 69.8 a.u.
2'F-ANA at 1 3 6 7 8 9 11 13: 242 a.u.
2'F-ANA at 1 2 4 8 14: 59.2 a.u.
2'F-ANA at 3 5 11: 121 a.u.
2'F-ANA at 3 9 10 11 12 14: 440 a.u.
2'F-ANA at 1 3 5 10 12 13 15: 46 a.u.
2'F-ANA at 2 5 6 7 12 13 14 15: 88.2 a.u.
2'F-ANA at 1 2 3 4 5 8 10 12 14: 49.1 a.u.
2'F-ANA at 3 4 7 12: 985 a.u.
2'F-ANA at 1 2 4 6 7 12 15: 246 a.u.
2'F-ANA at 2 3 4 5 6 7 8 10 13: 49 a.u.
2'F-ANA at 2 8 11 13 15: 354 a.u.
2'F-ANA at 4 5 7 8 9 11 12: 134 a.u.
2'F-ANA at 2 4 6 7 8 11: 270 a.u.
2'F-ANA at 2 3 4 7 8 10 15: 303 a.u.
2'F-ANA at 2 6: 447 a.u.
2'F-ANA at 2 3 4 5 12 14 15: 53.7 a.u.
2'F-ANA at 1 4 6 7 10 14 15: 47.2 a.u.
2'F-ANA at 2 3 4 7 10 12 13 14 15: 178 a.u.
2'F-ANA at 2 3 6 7 11 15: 611 a.u.
2'F-ANA at 1 2 3 4 6 7 10 11 12 13 14 15: 80.9 a.u.

Study 4 — method: RNA Bind-n-Seq; form: RNA; medium: in vitro; concentration: 365 nM; reference: no-protein control; reading: higher = stronger binding; measurement: RBNS enrichment (R)
Target: RNA binding protein fox-1 homolog 2, RRM domain, GST-SBP tag (RBFOX2, Homo sapiens, UniProt O43251-10, residues 100-194)
Setting: natural RNA segment, single round, ends assumed
Constant ends, left off below: GGGAGUUCUACAGUCCGACGAUC … UGGAAUUCUCGGGUGCCAA
Construct (chain): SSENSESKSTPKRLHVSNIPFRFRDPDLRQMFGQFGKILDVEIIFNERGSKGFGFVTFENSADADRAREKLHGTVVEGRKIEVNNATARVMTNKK
CUUUAUUUUAUUUAAAGCAUCUGUUUAAUGCAACUUUUAAUCAGAUUUUGCAAAGGGUAUGUAUGUAUUUUAAUAUAGUCUGACCUGAAUUUAUAUGUUUUUAGCUUUAG: 1.29
GACCAAGCUGUAGCCUCCACUGGCCCCAUCACUGCCAACUGCAGGGGGCCCCUCGGGCCUCACUUGCCCUGAGCCCAGGAGUCCAAGGGCAGGGUGGGUCCAGCCUUGAG: 0.558
CCUGCUGAGGGACCCUUCAACUGGCCAGAGCCUGGAUCAAUUUCAUGUUGAUCAGUCAGAGGAACUGAGAAAGCCACUAGAUCCAAGCUUAGUCCCAAGAAGAGGGUGAA: 0.807
UCAUCUUGCCAGAACAAGCUCUCAGCAGCCCAGGAACAGUCCAUGGCCUUCUCAGGCCUGGCCCUUUUCAUCAGAUACAAGGGCCAGGAGACCAGACUCUUGCUUCUGAU: 0.271
ACUAGGAGGCCUGCAGUUAUUUUUGAAUGUGAAAAUGCAUUUGCGUUCAUCUUGUCUAUUUUUUCUCUUCAUGUUGUAACAAAAAGGAAAAAAGAAAAAAAAAUCCCAUC: 0.571
UCUUGUGGAGUUCAACUCUGUCAAACGAUUGGAAAGGGCAUCCAUUUCCAGAUCUUUGGCAUUUUCCCCGCGCUGACUCUUUGAUGAUCCUUCACUGUGGCCUUUUCAAG: 0.294
UGACAGAACAGCACAUCCUGGCCAGCACCCCUGGCUGGAGUGGGUUAAAGGGACGAGUCUGCCUUCCUGGCUGUGACACGGGACCCCUUUUCUACAGACCUCAUCACUGG: 0.199
UUUUAAGAUAAAAACUGCACAAAAGGGGAGUGAGAGAGACUAGUUUCCACAUCCUUCCCUCCUUUAGUGAAGCCCCCGAGGUUGUGUCCAGGGUGAUGAGUGUGGACGGG: 0.852
GAACAAUGGAGAGAAAGUAGGUGAGUACUUUGAGUGUUGGGCUUUGGGCCAAAAAUGCAGACUCAGGUUUUAGGUGUCUUACCACAUGGCUGCCCUGUGCAGGCUGUCAU: 1.06
CAACUUGUUGGCCUUGUGCUCUGUCACUCUGAGCAUCUAUGGUGAUAAAGAGAAGGAAACGCUGCAGAGGCACAAGCAUAAGCUGGCUUUGAGUCUUUGAAAGCUUGAUG: 0.667
ACGGAGACCCUUCUUGUUGAAGGGGCCUGCUGCUAGUAACCUUUGCAAUGUUCUGCUUUUAAUAUGUGUCAAAUGGGAGUCUGGAAACUGUAAUAAAGAUGAUUGUAUCC: 0.703
GCUCGGAAGGCCUUGAGAGGGCUGAUGGGGAAGUCACUGAGGAUGAAUCUGUCAUCUCAGGCAAUAAUGUGUAGGUGUCACCAUGAGUCACAUACAGUUCUUUUUAGGCA: 0.668

Excerpt of the above (study 2):
GACGGTCTCCTTCTCCTCACGTGCTAG: 1.03 z-score
TGAAATTTTAATAACACAGAGTGCTAG: -1.14 z-score
GACGGTTTCCTTTCGCTGACGTGCTAG: 5.88 z-score
TTAGGAGTGCTTCTCCTTTAGTGCTAG: 0.32 z-score
GACGGTTTCCTACTGCTGCCGTGCTAG: 1.89 z-score
TTAGATTCCAGTTTGGATTAGTGCTAG: 0.831 z-score
TTAAGTTTCCTTTTCCTTTAGTGCTAG: 9.18 z-score
TGGGGGGATCAGGGAAACAGGTGCTAG: 1.85 z-score
TCACATTTCCCTTGCCGACTGTGCTAG: 2.82 z-score
GACGGTTTCTTACTGCTGACGTGCTAG: 1.66 z-score
TTAGAGTTCAGTCTCGATTAGTGCTAG: -0.156 z-score
GAAGGTTTCCTTCTCCTGACGTGCTAG: 2.12 z-score
